# Published values gathered from unrelated publications.
# Parts stem from different laboratories: compare values within a part only. Changes are numbered by the printed parent chain.

# Study 1
# Target: HLA class I histocompatibility antigen, A alpha chain, allele A*80:01 (Homo sapiens, UniProt P04439)
# Observed: peptide-MHC binding
# Molecule type: peptide
# Concentration: concentration not given
Molecule,binding
PIPVGDIYK,inactive
YNAKRIETV,inactive
MHCDFAFWV,inactive
IIRTENRPL,inactive
YCPGTTVTL,inactive
LTDSSTLLV,inactive
MRNTIMASK,inactive
LMLHQQYNQ,inactive
VILNYIPVL,inactive
EIPDVLNSL,inactive
KLGEGFKSL,inactive
TVFRNQNRV,inactive
LAKSVFNSL,inactive
DAVEDFLAF,inactive
KAYKIISLK,inactive
FRRVAHSSL,inactive
TVAPPAPVY,inactive

# Study 2
# Target: CCND3, cyclin fold, Cln2 fusion (human)
# Technique: yeast growth competition, sequencing
# Medium: yeast
# Setting: weak parent motif
# Reference: not given
# Direction: higher = stronger binding
# Starting sequence: viral docking peptide; CKVKRKLFGSENI; partner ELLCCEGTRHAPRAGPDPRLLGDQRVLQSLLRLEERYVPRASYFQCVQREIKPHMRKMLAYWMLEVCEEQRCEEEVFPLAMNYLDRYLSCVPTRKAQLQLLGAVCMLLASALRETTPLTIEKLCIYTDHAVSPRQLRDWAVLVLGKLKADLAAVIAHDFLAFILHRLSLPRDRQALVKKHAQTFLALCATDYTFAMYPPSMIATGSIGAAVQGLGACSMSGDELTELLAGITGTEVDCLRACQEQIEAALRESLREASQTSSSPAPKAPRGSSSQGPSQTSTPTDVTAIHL
Change,normalised enrichment score
CKVKRKLFGSANI [E11A],0.148
CKVKRKLFGSENA [I13A],0.173
CKVKAKAFGSENI [R5A L7A],0.169
CKVKRALFGSENI [K6A],0.111
CKVKKKLFGSENI [R5K],-0.325
CKVKRKLAGSENI [F8A],0.139
AKVKRKLFGSENI [C1A],0.087
CAVKRKLFGSENI [K2A],0.194
CKVKKKLLGSENI [R5K F8L],-0.125
CKVARKLFGSENI [K4A],0.143

# Study 3
# Target: ABI1, truncated, D143A, DHFR fusion (Arabidopsis thaliana, UniProt P49597)
# Technique: DHFR PCA, dose-response
# Medium: yeast
# Setting: Hill fit, mean, not affinity
# Together with: (+)-ABA, dose series
# Direction: lower = more sensitive
# Starting sequence: PYL1, truncated, DHFR fusion (Arabidopsis thaliana, UniProt Q8VZS8); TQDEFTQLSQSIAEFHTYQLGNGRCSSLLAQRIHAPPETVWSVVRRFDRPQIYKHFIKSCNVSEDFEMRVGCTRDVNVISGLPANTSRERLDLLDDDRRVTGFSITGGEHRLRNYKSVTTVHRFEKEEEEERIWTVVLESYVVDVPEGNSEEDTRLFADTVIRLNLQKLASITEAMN
Change,ABA EC50 [µM]
V143Y,485
V70P,1.44
Q2C,1.78
R88T,4.34
G148V,132
L8F,4.1
H55S,0.354
L93W,14.4

# Study 4
# Target: Prothrombin, mature alpha-thrombin (F2, Homo sapiens, UniProt P00734)
# Technique: aptamer microarray, sandwich
# Molecule type: DNA with 2'F-ANA
# Medium: in vitro
# Concentration: 200 nM
# Setting: whole 15-mer aptamer, many near background
# Together with: Cy3 exosite-II aptamer, 400 nM
# Direction: higher = stronger binding
# Oligonucleotide: GGTTGGTGTGGTTGG
Modification,mean fluorescence intensity
2'F-ANA at 2 4 7 8 10 11 12,119 a.u.
2'F-ANA at 1 3 4 5 7 9 11 12 13 15,62.1 a.u.
2'F-ANA at 1 2 3 4 8 10 11 12 13 15,68.8 a.u.
2'F-ANA at 2 3 4 7 12 14 15,420 a.u.
2'F-ANA at 3 5 6 9 12,351 a.u.
2'F-ANA at 1 3 4 5 13,47 a.u.
2'F-ANA at 2 5 8 13 14 15,46.3 a.u.
2'F-ANA at 1 2 4 5 11 14 15,45.2 a.u.

# Repeated from above (study 2):
Change,normalised enrichment score
CKVKAKAFGSENI [R5A L7A],0.169
CKVKRALFGSENI [K6A],0.111
CKVKKKLFGSENI [R5K],-0.325
CKVKRKLAGSENI [F8A],0.139
AKVKRKLFGSENI [C1A],0.087
CAVKRKLFGSENI [K2A],0.194
CKVKKKLLGSENI [R5K F8L],-0.125
